{"data": "Experimental data from different studies", "action": "agonist", "CNR1": "Cannabinoid receptor 1 (CNR1, Homo sapiens, UniProt P21554)", "CNR1 I267L/L193I/L359V": "Cannabinoid receptor 1 (CNR1, Homo sapiens, UniProt P21554, I267L/L193I/L359V)", "note": "Numbers after ± are the reported error.", "UniProt P21554, sequence (whole entry, unmodified, looked up)": "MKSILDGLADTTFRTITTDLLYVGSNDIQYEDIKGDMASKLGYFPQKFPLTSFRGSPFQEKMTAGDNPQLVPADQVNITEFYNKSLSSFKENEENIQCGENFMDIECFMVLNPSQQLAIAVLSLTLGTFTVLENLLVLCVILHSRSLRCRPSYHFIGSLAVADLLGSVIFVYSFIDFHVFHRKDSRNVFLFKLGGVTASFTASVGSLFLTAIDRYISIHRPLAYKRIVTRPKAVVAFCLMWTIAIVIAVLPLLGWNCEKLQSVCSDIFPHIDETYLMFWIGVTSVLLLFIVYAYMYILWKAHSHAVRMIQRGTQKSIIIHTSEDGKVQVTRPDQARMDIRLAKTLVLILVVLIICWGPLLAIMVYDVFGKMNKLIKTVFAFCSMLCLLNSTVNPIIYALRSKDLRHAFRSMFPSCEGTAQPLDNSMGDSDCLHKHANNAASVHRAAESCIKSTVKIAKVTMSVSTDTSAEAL"}
{"Compound": "CCCCCn1ccc(C(=O)N[C@H](C(N)=O)C(C)C)n1", "target": "CNR1", "observed": "calcium signal", "EC50": "4200 nM"}
{"Compound": "O=[N+]([O-])CC(c1ccco1)c1c(-c2ccccc2)[nH]c2ccccc12 (stereo not shown)", "target": "Cannabinoid receptor 1, with Gz (CNR1, Homo sapiens, UniProt P21554)", "observed": "Gz dissociation", "technique": "BRET", "cell line": "HEK293", "EC50": "370 ± 40 nM"}
{"Compound": "CCCCCn1cc(C(=O)c2ccc3c(c2)CC(C)(C)C3)c2ccccc21", "target": "CNR1 I267L/L193I/L359V", "observed": "cAMP inhibition", "technique": "CAMYEL BRET biosensor", "added": "forskolin 10 µM", "EC50": "100 nM"}
{"Compound": "CCOC(=O)C(CC)(CC)NC(=O)c1ccc(C2CC2)c(Cc2ccc(F)cc2)n1", "target": "CNR1", "observed": "cAMP", "EC50": "4.4 nM"}
{"Compound": "Cc1ccc2c(C(C[N+](=O)[O-])c3cccs3)c(-c3ccccc3)[nH]c2c1 (stereo not shown)", "target": "Cannabinoid receptor 1 (CNR1, Homo sapiens, UniProt P21554, I245F)", "observed": "G protein activation", "technique": "BRET", "EC50": "120 nM"}
{"Compound": "CCCCCn1cc(C(=O)c2cccc3ccccc23)c2ccccc21", "target": "CNR1 I267L/L193I/L359V", "observed": "cAMP inhibition", "technique": "CAMYEL BRET biosensor", "added": "forskolin 10 µM", "EC50": "0.479 nM"}
{"Compound": "COc1ccc(C(C[N+](=O)[O-])c2c(-c3ccccc3)[nH]c3ccccc23)cc1OC (stereo not shown)", "target": "CNR1", "observed": "G protein activation", "technique": "BRET", "EC50": "3300 nM"}
{"Compound": "CCCCCn1ccc(C(=O)N[C@@H](C)c2ccccc2)n1", "target": "CNR1", "observed": "calcium signal", "EC50": "1250 nM"}
{"Compound": "CCCCCn1cc(C(=O)c2cccc3c2CC(C)(C)C3)c2ccccc21", "target": "Cannabinoid receptor 1 (CNR1, Homo sapiens, UniProt P21554, H178A)", "observed": "G protein activation", "technique": "BRET", "EC50": "1380 nM"}
{"Compound": "CC(C)[C@H](NC(=O)c1ccn(Cc2ccc(F)cc2)n1)C(N)=O", "target": "CNR1", "observed": "calcium signal", "EC50": "4350 nM"}
{"Compound": "Cn1c(C(C)(C)C)c/c(=N\\C(=O)c2cc(C(F)(F)F)ccc2OCC(C)(C)O)n1CC1CCC1", "target": "CNR1", "observed": "cAMP", "EC50": "> 10000 nM"}
{"Compound": "CCCCCn1ccc(C(=O)NC(C)(C)c2ccc(C(N)=O)cc2)n1", "target": "CNR1", "observed": "calcium signal", "EC50": "> 10000 nM"}
{"Compound": "CCCCCn1cc(C(=O)c2ccc3ccccc3c2)c2ccccc21", "target": "CNR1", "observed": "GαoA activation", "technique": "BRET", "EC50": "166 nM"}
{"note": "For quick reference, copied from above:"}
{"Compound": "CCCCCn1ccc(C(=O)N[C@H](C(N)=O)C(C)C)n1", "target": "CNR1", "observed": "calcium signal", "EC50": "4200 nM"}
{"Compound": "CCCCCn1cc(C(=O)c2ccc3c(c2)CC(C)(C)C3)c2ccccc21", "target": "CNR1 I267L/L193I/L359V", "observed": "cAMP inhibition", "technique": "CAMYEL BRET biosensor", "added": "forskolin 10 µM", "EC50": "100 nM"}
